Experimental data pooled from the literature.
A part holds a random share of what one study measured. Positions count from the first letter of the parent shown.

Block 1
Target: Histone acetyltransferase KAT6A, winged helix 1, GST fusion (KAT6A, Homo sapiens, UniProt Q92794, residues 1-85)
Technique: protein binding microarray
Form: double-stranded DNA, one strand shown
Sample: in vitro
Concentration: not given
Notes: 8-mer, flanks averaged, mean of 2 arrays, mostly near background
Reference: not given
Direction: higher = stronger binding
Residues (chain): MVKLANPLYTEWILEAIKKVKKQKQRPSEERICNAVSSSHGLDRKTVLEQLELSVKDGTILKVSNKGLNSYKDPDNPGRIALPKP
Sequence	E-score
AGGTGTGA	-0.102
AGTTTTGG	-0.116
CCTTACCA	-0.1
CTCGGTCA	0.00276
ATGACTCG	-0.124
CGCGTGGC	0.302
GTGCAGCA	0.0176
AGCTCGAC	-0.126
ACTTCTCC	-0.0814
GGTAAATA	0.0326
ACTCAACA	-0.132
CGACCGCG	0.415
TGCAACCA	-0.285
AGACGTCA	-0.087
CCTATAGA	-0.0436
ACTCATGA	0.0006
ATGCTCGA	-0.193
CTTCATTA	-0.13
ACGTGCAC	-0.0162
TAGTATCA	-0.11
TAAGATCA	-0.074
CGAACAGC	0.099
CGAACACC	0.023
CTGCGTTA	0.0333
CACTCGTC	0.0427

Block 2
Target: ABI1, truncated, D143A, DHFR fusion (Arabidopsis thaliana)
Technique: DHFR PCA, deep sequencing
Sample: yeast
Notes: methotrexate growth selection, single substitutions
Added: (+)-ABA 0 µM
Reference: wild-type fitted maximum
Direction: higher = stronger binding
Parent: PYL1, truncated, DHFR fusion (Arabidopsis thaliana); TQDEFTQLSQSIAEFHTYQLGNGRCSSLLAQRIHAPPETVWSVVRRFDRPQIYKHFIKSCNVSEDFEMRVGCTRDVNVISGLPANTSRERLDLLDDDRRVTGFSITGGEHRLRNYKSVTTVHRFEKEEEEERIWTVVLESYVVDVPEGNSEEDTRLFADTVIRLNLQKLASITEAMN
Change	relative binding score [%]
L91V	1.16
T119W	-2.67
T160R	-1.73
R45C	2.33
I133V	55.4
Q51I	-13.1
L93P	6.03
N149L	26.7
T135E	-6.79
D3R	16.1
A30V	10.3
I105A	-4.89
G23Y	2.76
A175N	16.3

Block 3
Target: CCNB1, cyclin fold, Cln2 fusion (human)
Technique: yeast growth competition, sequencing
Sample: yeast
Notes: weak parent motif
Reference: not given
Direction: higher = stronger binding
Parent: ORC1 docking peptide (human); PRARKRLELGNLG
Change	normalised enrichment score
PRARKRLELRNLG [G10R]	0.539
PRARKRLELHNLG [G10H]	-0.302
PRARKRLEAGNLG [L9A]	1.03
PRARKRLELGKLG [N11K]	-0.511
PRARKFLELGNLG [R6F]	0.919
PRARKRCELGNLG [L7C]	0.517
PRARKRLELGNLC [G13C]	1.01
PRARYRLELGNLG [K5Y]	0.206
PRARKRLTLGNLG [E8T]	0.0289
PRARGRLELGNLG [K5G]	0.26
PRDRKRLELGNLG [A3D]	0.642
PRARKRLELGNLR [G13R]	0.246
PQARKRLELGNLG [R2Q]	0.211
PRARKRLELGPLG [N11P]	0.667
PRARKRLRLGNLG [E8R]	0.706
PRARKRLELGNEG [L12E]	1.02
PRARKALELGNLG [R6A]	-0.087
PRARKRLDLGNLG [E8D]	1.69
PRARCRLELGNLG [K5C]	0.375
PRARRRLELGNLG [K5R]	0.349
PRARKRVELGNLG [L7V]	-0.0994
PNARKRLELGNLG [R2N]	0.895
PRYRKRLELGNLG [A3Y]	1.63
PRARKRLWLGNLG [E8W]	0.256
PRAGKRLELGNLG [R4G]	0.669

Block 4
Target: Interferon regulatory factor 7, full length, phosphomimetic (IRF7, Homo sapiens, UniProt Q92985, residues 1-503, S101K/S471D/S472D/S475D/S476D/S477D/S483D/S484D/S487D)
Chain of UniProt Q92985 (whole entry, unmodified, looked up): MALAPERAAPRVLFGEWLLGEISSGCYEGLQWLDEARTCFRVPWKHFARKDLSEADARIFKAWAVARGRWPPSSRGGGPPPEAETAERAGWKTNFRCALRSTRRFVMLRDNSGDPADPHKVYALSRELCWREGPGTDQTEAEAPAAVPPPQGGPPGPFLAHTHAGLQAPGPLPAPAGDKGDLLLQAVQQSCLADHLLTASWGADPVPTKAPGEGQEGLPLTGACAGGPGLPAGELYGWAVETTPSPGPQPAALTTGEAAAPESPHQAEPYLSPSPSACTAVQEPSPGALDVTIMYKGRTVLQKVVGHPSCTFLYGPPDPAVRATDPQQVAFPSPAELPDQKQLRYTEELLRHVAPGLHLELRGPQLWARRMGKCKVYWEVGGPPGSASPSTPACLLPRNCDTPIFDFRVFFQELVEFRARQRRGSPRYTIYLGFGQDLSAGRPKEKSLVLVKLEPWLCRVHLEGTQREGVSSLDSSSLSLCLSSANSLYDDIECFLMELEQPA
Technique: protein-binding microarray
Form: double-stranded DNA, one strand shown
Sample: in vitro
Concentration: 250 nM
Notes: 60-bp whole probe
Added: salmon DNA 0.4 mg/ml
Reference: random background probes
Direction: higher = stronger binding
Shared flanks, not repeated: GCCTAGCAC … GTCTTGATTCGCTTGACGCTGCTG
Sequence	log fluorescence [z-score]
TTAGGACAGGGGACTGGGTTAGTGCTA	-0.33
TACGATTCCAGTTTCGAGACGTGCTAG	4.87
GACGGTCTCCTTCTGCTGACGTGCTAG	0.15
TCTACTTCTCTTTTTGCTTTGTGCTAG	1.75
TGGTGTCTCTGGCCTGGGTCGGTGCTA	-0.731
TCATCTTTTCTGTTGTCACTGTGCTAG	1.28
TTAGGTATCGGTTTCTGTTAGTGCTAG	7.89
GACGGTTTCGGAACTGGGGACGTGCTA	6.35
ATATCTAAAAAGTCTCTGGGAGTGCTA	1.26
TCACTTTGCCTTTTGCTACTGTGCTAG	0.973
GACTGTTTCGGTTTCGGGACGTGCTAG	10.7
TTACATCTCAGTCTCGATTAGTGCTAG	1.64
TGGACTGCACAAGGGCCAGTGTGCTAG	-0.414
CACGGACTGGGGTATCGGGACGTGCTA	-0.537
TTAGGTCTCCTTCTGCTTTAGTGCTAG	-0.0131
GACGATATCCGGACTGGAGACGTGCTA	-0.192
TTAGGGCTGGGGTTTCGGTTAGTGCTA	4.24
TCACTTTACACACATCATCTTGTGCTA	1.59
CTTTAACTCATTCTCTGTTTGTGCTAG	1.89
TTAGGTTTCGGTTCCGGATAGTGCTAG	12.5
TCAAGTATTTTTTTCCAACTGTGCTAG	0.568
TGAGGTCTCCTACTGCTTTAGTGCTAG	-0.592
GACGGTATCCTTATCCTGAAGTGCTAG	0.308
TTAGATATCTGACTGGATTAGTGCTAG	0.00751

Block 5
Target: RING finger protein unkempt homolog, zinc fingers 1-6, GST-SBP tag (UNK, Homo sapiens, UniProt Q9C0B0, residues 30-357)
Technique: RNA Bind-n-Seq
Form: RNA
Sample: in vitro
Concentration: not given
Notes: RNA with constant flanks, ends assumed
Reference: input RNA pool
Direction: higher = stronger binding
Residues (chain): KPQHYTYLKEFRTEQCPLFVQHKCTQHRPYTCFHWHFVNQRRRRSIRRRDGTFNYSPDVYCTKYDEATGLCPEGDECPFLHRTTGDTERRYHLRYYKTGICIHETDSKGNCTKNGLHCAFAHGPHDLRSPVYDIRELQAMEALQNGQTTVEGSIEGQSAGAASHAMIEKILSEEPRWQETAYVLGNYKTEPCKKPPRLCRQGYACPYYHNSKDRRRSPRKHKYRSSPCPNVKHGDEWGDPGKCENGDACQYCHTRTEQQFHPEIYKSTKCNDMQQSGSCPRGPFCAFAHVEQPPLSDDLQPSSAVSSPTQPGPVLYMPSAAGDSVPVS
Sequence	bound/input enrichment
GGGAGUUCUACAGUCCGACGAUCGGCUGUGUAGGGGAGGAAGGGGUGCAUGCAUGUCCCCCACCCUCCACAGUCUUCCUUGCCUUCCGAGUGACCCUGCAGAGUCACUCAGCCAAAUCUGUCUGCUGCUCCCUCUCCUCAGCCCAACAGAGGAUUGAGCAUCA	0.167 ratio
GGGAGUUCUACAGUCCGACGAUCAGCCACUUCAACCACUGAUGGUCAUUAAAACUCCUUUUUCACUAACUGAACCAGCAGGUCUCCGGGCUGGAGACAGCAUUUGAUCAUAGUGGACGUUGUUACAAAGACACACUGAGUCUACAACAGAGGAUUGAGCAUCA	0.106 ratio
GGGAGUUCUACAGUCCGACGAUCCAGCCGCGUAUACCACUCCUGGGGCAGGGCGGGAGAGUAUUGUCUGUCCUAGAGUUUUGCCCGCACCUUUUUAAAGUGAUCUUAGCUUGCUUCUUAUGUGGGAACUGCCUAGACUUCCUACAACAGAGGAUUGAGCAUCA	0.147 ratio
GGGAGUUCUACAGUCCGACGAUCCUAAUCCCCUUCGUUGCUCCACCACUGGUCAUGCUGAUGACAAAAACUUAUAUUCCCAUAUCCGCUUUUACUCAGAUGGCUUAUGGAGCCAGUUUCCUAUCUUUCUUGGGUGGGAUCAGACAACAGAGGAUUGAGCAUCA	0.256 ratio
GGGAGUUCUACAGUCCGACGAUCUCCGAUAUGGACUACAUUCAGACAGACGCUAUCAUCAAUUAUGGAAAUUCCGGAGGCCCGUCCGUAAACCUGGAUGGCGAGGUGAUUGGGAUUAACACCUUGAAGGUGACGGCGGGCAUCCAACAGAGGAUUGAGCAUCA	0.28 ratio
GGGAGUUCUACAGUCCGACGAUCAGCAAAAGAGCCAAGCAGUAGCAAUGUUUGUUUUUUUUUUUUUUUGUAAAUGUAAAAAUAAUCCGCUCUAGACCUGUUUCCUUUGAUUUAAAAAUAAAGAAUGCCUCAGUGCUGCUCUCACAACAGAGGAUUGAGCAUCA	0.319 ratio
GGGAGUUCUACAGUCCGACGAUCUCCCAGCCCCUCAUUAGAUUGUUUUCUUCCCAGAGCCCAGGGUCGUGAUAUAUACAUCUAAACCGCGUUUUGCAUUAUUUCUAGAUGAGUGCAACUGUCAAAGCAAUAUGGGUUCACUGGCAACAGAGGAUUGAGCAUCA	1.07 ratio
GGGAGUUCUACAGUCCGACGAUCGAUGAAGUCGUUACAUCGGAGGGAAAGACUAAGCCCCUCAUACCAGAGAUGUGUUUUAUUUACCGUGAAGAAAAUAUAGAAUAUUCUCCACCCAAUGCCUUCCUUGAAGAGGAUGGAACACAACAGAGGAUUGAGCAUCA	0.0784 ratio
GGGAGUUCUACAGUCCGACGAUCAAUGCUAAAGGUAUAUCGUAAGGGUAGUGUUUGUUUUUGAACGAUAAUUUAGAAGUUCUCACCGAAAGCGUAUAACAUAGGUCUUCAGAAACUAUAAAAGAAUUUUCAUAUAGUAUUAAACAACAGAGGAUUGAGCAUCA	10.7 ratio
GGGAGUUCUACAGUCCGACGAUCGUCAAGGCCAAAACACUAAGAAAACUGAUCCAACAAACAUUUAGACAAUUUGCCAACCUUAACCGAGAAGAAAGUAUUCUGAAAUUCUUUGAGAUCCUGUCUCCAGUCUACAGAUUUGAUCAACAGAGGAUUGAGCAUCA	3.75 ratio
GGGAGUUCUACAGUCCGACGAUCGCGGUCCCCACGGUCCUGGUAACCCCCCUGGGCGCCCUUGGAGUACCGUUCGGGUCCAUUUCCGCUUCCUAUCUCCUGAAGGAAAAGCUCAACAUCUUGGGCAAGUUGGGGUGCCUGCUACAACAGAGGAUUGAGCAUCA	0.19 ratio

Block 6
Target: Sal-like protein 4, full length isoform A (SALL4, Homo sapiens, UniProt Q9UJQ4, residues 1-1053)
Chain of UniProt Q9UJQ4 (whole entry, looked up): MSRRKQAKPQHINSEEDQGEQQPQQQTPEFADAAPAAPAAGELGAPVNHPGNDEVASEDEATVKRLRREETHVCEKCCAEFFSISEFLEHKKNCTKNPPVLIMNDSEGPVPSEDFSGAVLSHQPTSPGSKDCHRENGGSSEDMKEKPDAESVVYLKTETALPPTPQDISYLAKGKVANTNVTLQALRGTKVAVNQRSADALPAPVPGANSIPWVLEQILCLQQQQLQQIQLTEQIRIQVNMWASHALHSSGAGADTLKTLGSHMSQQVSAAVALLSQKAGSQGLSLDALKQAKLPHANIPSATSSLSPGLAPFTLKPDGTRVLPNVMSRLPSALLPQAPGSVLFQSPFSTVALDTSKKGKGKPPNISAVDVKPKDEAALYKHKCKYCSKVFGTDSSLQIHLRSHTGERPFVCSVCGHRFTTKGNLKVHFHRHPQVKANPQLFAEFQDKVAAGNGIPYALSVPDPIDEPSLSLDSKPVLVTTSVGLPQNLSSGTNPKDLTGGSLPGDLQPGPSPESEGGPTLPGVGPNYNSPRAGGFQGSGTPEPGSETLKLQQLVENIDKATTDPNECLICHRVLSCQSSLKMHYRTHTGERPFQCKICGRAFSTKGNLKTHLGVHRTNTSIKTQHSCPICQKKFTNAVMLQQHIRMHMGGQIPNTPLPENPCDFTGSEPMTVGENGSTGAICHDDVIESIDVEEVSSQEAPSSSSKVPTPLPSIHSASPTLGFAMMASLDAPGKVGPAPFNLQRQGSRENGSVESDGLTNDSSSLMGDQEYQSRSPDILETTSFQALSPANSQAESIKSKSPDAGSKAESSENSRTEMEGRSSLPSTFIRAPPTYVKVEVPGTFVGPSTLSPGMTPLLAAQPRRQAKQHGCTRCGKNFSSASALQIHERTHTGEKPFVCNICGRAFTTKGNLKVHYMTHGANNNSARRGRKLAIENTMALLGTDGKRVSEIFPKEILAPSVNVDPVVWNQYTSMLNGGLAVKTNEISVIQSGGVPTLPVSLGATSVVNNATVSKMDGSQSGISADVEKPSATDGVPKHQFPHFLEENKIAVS
Technique: universal PBM
Form: double-stranded DNA, one strand shown
Sample: in vitro
Concentration: 600 nM
Notes: 8-mer, flanks averaged, mean of replicates
Direction: higher = stronger binding
Sequence	E-score
CAACCGTA	-0.13
TGCCAACA	0.00864
ATCGCCAT	0.0584
AGTCTCAG	-0.0654
GACCTGAC	-0.173
AAACGCCA	-0.0471
ACCGCACT	-0.178
GAAAGTGC	-0.152
CAGGCCCC	-0.418
AAATTAAA	0.345
CAGCCAGA	-0.223
TACTGTGA	0.0895
GCCCGTAA	-0.174
GCGGCTTA	-0.144
AGATAGTC	0.00354
AGGATCAC	-0.0552
GGTTGAAA	0.0801
GGTCGTCA	0.00188
GTACGTAC	-0.0634
ACAAACTA	0.208
TCCCGCGA	-0.183
CGCAACAG	0.0757
CAAACAAC	0.196
ACCGACGT	-0.124
TCCTCGAA	-0.0486

Excerpt of the above (block 6):
Sequence	E-score
TCCCGCGA	-0.183
ATCGCCAT	0.0584
GACCTGAC	-0.173
GCCCGTAA	-0.174
GGTCGTCA	0.00188
TGCCAACA	0.00864
CAACCGTA	-0.13
GCGGCTTA	-0.144
GAAAGTGC	-0.152
ACCGCACT	-0.178
AAACGCCA	-0.0471
AGGATCAC	-0.0552
GTACGTAC	-0.0634
ACCGACGT	-0.124
TACTGTGA	0.0895
TCCTCGAA	-0.0486
